Experimental data collected from several papers.
Numbered parts are unrelated; each lists some results of a single study.

Set 1 — method: RNA Bind-n-Seq; molecule type: RNA; matrix: in vitro; tested at: 365 nM; baseline: no-protein control; direction: higher = stronger binding; measurement: RBNS enrichment (R)
Target: RNA binding protein fox-1 homolog 2, RRM domain, GST-SBP tag (RBFOX2, Homo sapiens, UniProt O43251-10, residues 100-194)
Setting: natural RNA segment, single round, ends assumed
Constant ends, left off below: GGGAGUUCUACAGUCCGACGAUC … UGGAAUUCUCGGGUGCCAA
Target sequence (chain): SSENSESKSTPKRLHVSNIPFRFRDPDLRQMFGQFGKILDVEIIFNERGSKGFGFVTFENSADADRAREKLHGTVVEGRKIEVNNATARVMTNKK
UAACUUGCUCUAUAUCUGUACAGAUUAUAAUCAAUAAGUGCACUAUUAUUAAAUGUUUAAAGUAAGGGAAAAGUCUGGGCUGCCUUCCUUAAUAUUGCAUCUCACUCCCA: 2.47
GCGAUCAAUUCUGCAUGGUCACAGUAGAGAUCCCCGCAACUCGCUUGUCCUUGGGUCACCCUGCAUUCCAUAGCCAUGUGCUUGUCCCUGUGCUCCCACGGUUCCCAGGG: 0.618
UGUGGACUUGGCUGUCUUGUGAUGUAUUUUUUUCAUAUGUAUCCUGUGCCAUACUAUUGUUAAAAUGAACUGUUGCUAUUGUGAGAUGGAUUUCCUUUCGAAUGGCACUA: 0.796
AGCGCGCGGCUCUACACGCUUGGGUAGCGGGAUAAGUCACUGUUUUCUUUAUUUCUUUAAAAAAAAAAAAGUUCUGUUGCAAACGACUGCUGUUGGAUUCUGAGGGUGGG: 0.987
GAGGAAGAAGGAAUUCACUAGGUUUUAACAAUGUUUCUCCUGCUCCUUUCUUCUCCCUAUCAGAGCUGACCCUACAAACACCUGUCCCCUGAGUUGUGUUGAAGUCCCCU: 0.35
UUAGUUAGAAAUACAGGCUACAGUGUUUGGUCAGAAUUUAUUCGAAUGUCUUUAUUUUUAAUACCAACAUCAGCAUAAAUCUAUUUUUGCUAGUAGAUCAAAGCUAUUUU: 0.767
GAGUAGAGUAGCUUUUUUAUUCUUAGAUUAUAGUGAUAUUCUGUAGUGCUUCAAAUACUUAGAAUUCUAAUAUGAGAGAUAGUUUAAUAUUCUGGAAUAGAGAGUAUUUU: 0.558
UAUUUACCUAAAAAAAGAAAAUGCUUCAGUCAAUUGCUUUUUUAUUUAAAAAAAAAAAGAAAAAAAGCUGUAACCUUAUCAUUUCUGAGUAGACCAUUGAGCGAUGAAUG: 0.39
UUUCCGAGAUAUUCCGUAGUACAUAUUUAUUUUUAAACAGCAACAAAGAAAUACAGAUAUAUCUUAAAAAAAAAAGCAUUUUGUAUUAAAGAAUUGAAUUCUGAUCUCAA: 3.01
GGCAGAUUCCUGCUUGGCAUAAGCAUUUGUAGGUCUUCAUUCAAUUCUGUUAGAUUUUUUUAUUGGACUUACAUAAUGCCGUUUAUUUGAGAAACACAUAACAUCUCUCC: 0.321
GGCAGUGACAUAUGGCCUCAGGCUGGACACCGAGACAGGUGGAAAUACCCUGUCCAUUGGUAGAUGUCUUGCUUCUUCUGGUUCAGGCAGGGAAAACACUUGGACUCUUC: 0.446
AAGUCCUUGCCCACUUCCCACUCUCCUGCCCCAAUCUAUCUAGUACUUCCCAGGCAAAUAGGCCCCUUUGAGGCUCCUGAGUGCCCUCAGAUGGUCAAAACCCAGUUUUC: 0.522

Set 2 — method: RNA Bind-n-Seq; molecule type: RNA; matrix: in vitro; tested at: not given; setting: RNA with constant flanks, ends assumed; baseline: input RNA pool; direction: higher = stronger binding; measurement: bound/input enrichment
Target: RING finger protein unkempt homolog, zinc fingers 1-6, GST-SBP tag (UNK, Homo sapiens, UniProt Q9C0B0, residues 30-357)
Constant ends, left off below: GGGAGUUCUACAGUCCGACGAUC … CAACAGAGGAUUGAGCAUCA
Residues (chain): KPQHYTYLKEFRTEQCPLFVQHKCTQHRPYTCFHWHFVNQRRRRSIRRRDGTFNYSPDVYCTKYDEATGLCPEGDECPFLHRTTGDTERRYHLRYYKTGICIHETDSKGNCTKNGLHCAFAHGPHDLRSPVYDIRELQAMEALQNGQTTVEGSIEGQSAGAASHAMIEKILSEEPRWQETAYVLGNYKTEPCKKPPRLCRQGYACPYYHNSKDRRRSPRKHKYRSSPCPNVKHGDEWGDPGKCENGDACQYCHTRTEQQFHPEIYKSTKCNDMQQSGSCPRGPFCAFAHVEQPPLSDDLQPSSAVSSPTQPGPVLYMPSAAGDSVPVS
UUGAAAUCUCUACGAGAACUGAAUGUCAGAAGAAAUUACCUUAAAGUUUUACCACAAGAACCCGCCGAUCUUUCCUUGGUAAAGUUUGACUUUUCCUGCAACAAAGUGCUCGUGAUUCCA: 0.194 ratio
UUAGAUUUCAUUGGUAAUAAUGAGUCUCCACGUAAAAAAUUCCCCCCAAUGACAUCUUACCACCGGAUGCUAUUACACAGAGUAGCCGCUUACUUUGGAUUAGACCACAAUGUUGAUCAG: 1.17 ratio
UGUAUGCUUUUCCUUGUGUAAAAUCAUUGUUCUUUUUGACAAGUGGUUUGUUUCAUUUAUUACCGCUUUGAAAUAAAAAAUCGUGAGGGAAAAAAAAUCCAAUGAUUGUACUGUGGUUAG: 0.141 ratio
CCUGGCAACCGAGCCCCCGAUCCCACAGAGAGUCGAAGUCUUCAUAUUCAGCACCCAGGGUACCGACCGGUAGCCCUGCUGCCCUCCACGUGCAACACAUCAUACAUCACCCUCCUAGGU: 0.244 ratio
AACAGAAUCAAACUAAGCCAUGUAUGAGGGUAAUCGAGAUGAGGAUAUUAACUCAAAAGAAACCGGGUGAUUUUUAAAGGAUUAAUAAAAUUCUGAAAUGUUAAGUAGAAGAUUACAUUG: 0.408 ratio
AAACUGACAGAGCUCCUCCGAUACUACAUGCUCAACAUAGAGGCUGCAAAGGAUCUCUUGUACCGACGUACCAAAGCCCUAAUUGACUAUGAGAAUUCAAACAAAGCUUUGGACAAGGCC: 0.0854 ratio
CACGCAGCAGUUGUGGUCAAUAUUGUGGUAGUCGCUAAUUGUACUGGUUUAAGUGUGCAUCCGCCGUGUCUCCCCAGCUAGAUUGUAAGCUCCUGGAGACAGGGACCACCUCCACCAAAA: 0.175 ratio

Set 3 — method: aptamer microarray, sandwich; molecule type: DNA with 2'F-ANA; matrix: in vitro; tested at: 200 nM; with: Cy3 exosite-II aptamer, 400 nM; direction: higher = stronger binding; measurement: mean fluorescence intensity; strand: GGTTGGTGTGGTTGG
Target: Prothrombin, mature alpha-thrombin (F2, Homo sapiens, UniProt P00734)
Setting: whole 15-mer aptamer, many near background
2'F-ANA at 1 3 6 7 8 10 11 14: 59.9 a.u.
2'F-ANA at 1 3 8 10 15: 86.6 a.u.
2'F-ANA at 2 3 4 5 9 10 12 13 14 15: 57.1 a.u.
2'F-ANA at 1 3 6 7 8 9 10 13 15: 76.5 a.u.
2'F-ANA at 4 5 6 7 8 9 11 12 13 14: 50.1 a.u.
2'F-ANA at 1 2 3 4 5 6 7 8 9 11 12 15: 91.5 a.u.
2'F-ANA at 4 10 13 14: 88 a.u.
2'F-ANA at 1 2 3 4 5 6 7 8 11 13 15: 58.8 a.u.
2'F-ANA at 1 4 6 9 10: 57 a.u.
2'F-ANA at 1 3 4 5 8 9 10 13: 60.6 a.u.
2'F-ANA at 2 3 9 10 11 12 14 15: 239 a.u.
2'F-ANA at 1 2 4 6 9 10 11 12 15: 62.4 a.u.
2'F-ANA at 2 3 4 7 9 11 15: 500 a.u.

Single results of other studies
PhoQ, residues 284 288 289 292 302 303 SSCCRF  fold induction (PhoP, residues 12 14 15 18 19 AQCLL (Escherichia coli, UniProt P23836); Sort-seq, measured: YFP reporter; E. coli; PhoQ-PhoP variant library, with: 10 µM Mg2+; baseline: high Mg2+ state, higher = stronger signaling): 2.61
